Measured values pooled from the literature.
Compare with care: the assays were run in different laboratories. Several values in a cell are separate wells, animals, samples, runs or records. ± gives the spread as reported.
TOP2A: DNA topoisomerase 2-alpha (TOP2A, Homo sapiens, UniProt P11388)
Chain of UniProt P11388 (whole entry, looked up): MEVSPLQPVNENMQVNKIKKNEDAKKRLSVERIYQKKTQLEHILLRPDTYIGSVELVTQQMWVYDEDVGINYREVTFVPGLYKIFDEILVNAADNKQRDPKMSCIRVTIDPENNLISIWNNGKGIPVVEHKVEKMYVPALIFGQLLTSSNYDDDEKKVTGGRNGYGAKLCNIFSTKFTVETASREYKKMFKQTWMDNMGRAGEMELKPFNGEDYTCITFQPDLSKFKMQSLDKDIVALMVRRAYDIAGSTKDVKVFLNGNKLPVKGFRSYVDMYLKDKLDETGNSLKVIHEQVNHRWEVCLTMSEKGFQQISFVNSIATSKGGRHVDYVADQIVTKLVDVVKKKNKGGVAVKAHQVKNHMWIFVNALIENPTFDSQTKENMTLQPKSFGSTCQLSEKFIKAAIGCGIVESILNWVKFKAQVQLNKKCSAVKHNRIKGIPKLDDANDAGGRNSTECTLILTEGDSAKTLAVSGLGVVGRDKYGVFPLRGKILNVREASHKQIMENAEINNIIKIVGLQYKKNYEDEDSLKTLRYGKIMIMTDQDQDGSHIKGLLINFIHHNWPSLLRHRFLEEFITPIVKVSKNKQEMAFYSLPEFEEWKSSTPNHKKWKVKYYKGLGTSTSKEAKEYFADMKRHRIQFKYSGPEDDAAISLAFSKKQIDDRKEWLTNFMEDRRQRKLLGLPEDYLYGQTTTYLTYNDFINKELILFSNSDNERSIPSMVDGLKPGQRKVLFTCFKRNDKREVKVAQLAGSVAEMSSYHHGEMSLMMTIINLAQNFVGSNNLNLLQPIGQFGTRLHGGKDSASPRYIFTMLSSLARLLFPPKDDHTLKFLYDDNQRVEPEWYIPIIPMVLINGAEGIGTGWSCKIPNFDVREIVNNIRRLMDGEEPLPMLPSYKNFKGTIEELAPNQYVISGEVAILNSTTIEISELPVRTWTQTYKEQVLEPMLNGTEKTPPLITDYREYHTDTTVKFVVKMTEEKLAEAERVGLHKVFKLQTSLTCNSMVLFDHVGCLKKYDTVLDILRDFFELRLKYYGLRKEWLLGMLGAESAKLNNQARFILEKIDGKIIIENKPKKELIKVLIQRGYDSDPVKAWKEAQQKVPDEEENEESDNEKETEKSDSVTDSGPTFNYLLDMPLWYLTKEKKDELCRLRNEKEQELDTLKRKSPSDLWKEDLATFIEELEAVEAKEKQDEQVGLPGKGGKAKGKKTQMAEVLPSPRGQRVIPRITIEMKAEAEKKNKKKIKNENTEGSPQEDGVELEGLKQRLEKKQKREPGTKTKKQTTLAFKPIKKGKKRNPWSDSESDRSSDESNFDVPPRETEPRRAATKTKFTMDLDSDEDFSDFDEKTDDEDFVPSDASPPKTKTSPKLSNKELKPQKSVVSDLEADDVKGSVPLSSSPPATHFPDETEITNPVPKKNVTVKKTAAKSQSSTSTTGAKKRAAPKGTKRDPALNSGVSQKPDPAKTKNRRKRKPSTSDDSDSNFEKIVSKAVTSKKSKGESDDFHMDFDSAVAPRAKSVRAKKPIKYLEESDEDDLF
BEST2: Bestrophin-2a (BEST2, Homo sapiens, UniProt Q8NFU1)
Chain of UniProt Q8NFU1 (whole entry, looked up): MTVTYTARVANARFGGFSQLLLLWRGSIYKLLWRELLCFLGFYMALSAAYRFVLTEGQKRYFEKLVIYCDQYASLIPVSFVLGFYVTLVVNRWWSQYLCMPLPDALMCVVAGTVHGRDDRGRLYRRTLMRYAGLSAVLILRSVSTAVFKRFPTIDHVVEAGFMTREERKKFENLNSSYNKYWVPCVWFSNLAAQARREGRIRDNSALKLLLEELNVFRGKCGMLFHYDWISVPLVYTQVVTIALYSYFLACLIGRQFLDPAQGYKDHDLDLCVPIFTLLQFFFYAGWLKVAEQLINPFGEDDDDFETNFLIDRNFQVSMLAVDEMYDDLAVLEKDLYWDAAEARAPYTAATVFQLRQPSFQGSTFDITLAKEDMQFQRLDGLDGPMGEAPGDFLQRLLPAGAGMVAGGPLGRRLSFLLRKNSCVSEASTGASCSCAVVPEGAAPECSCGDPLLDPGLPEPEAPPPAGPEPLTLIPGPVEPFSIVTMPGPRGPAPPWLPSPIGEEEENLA
IDE: Insulin-degrading enzyme (IDE, Homo sapiens, UniProt P14735)
Cereblon/Ikaros: Cereblon/Ikaros (Homo sapiens, UniProt Q13422+Q96SW2)
Chain of UniProt Q8IVV7 (whole entry, looked up): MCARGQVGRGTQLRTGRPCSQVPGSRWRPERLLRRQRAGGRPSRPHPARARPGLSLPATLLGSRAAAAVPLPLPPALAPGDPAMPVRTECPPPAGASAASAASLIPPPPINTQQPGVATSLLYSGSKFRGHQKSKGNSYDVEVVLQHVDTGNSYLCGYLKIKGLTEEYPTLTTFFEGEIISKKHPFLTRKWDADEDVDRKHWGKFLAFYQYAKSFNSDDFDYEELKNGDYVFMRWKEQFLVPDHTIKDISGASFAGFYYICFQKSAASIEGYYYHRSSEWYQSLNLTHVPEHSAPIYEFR
Chain of UniProt Q9UM73 (whole entry, looked up): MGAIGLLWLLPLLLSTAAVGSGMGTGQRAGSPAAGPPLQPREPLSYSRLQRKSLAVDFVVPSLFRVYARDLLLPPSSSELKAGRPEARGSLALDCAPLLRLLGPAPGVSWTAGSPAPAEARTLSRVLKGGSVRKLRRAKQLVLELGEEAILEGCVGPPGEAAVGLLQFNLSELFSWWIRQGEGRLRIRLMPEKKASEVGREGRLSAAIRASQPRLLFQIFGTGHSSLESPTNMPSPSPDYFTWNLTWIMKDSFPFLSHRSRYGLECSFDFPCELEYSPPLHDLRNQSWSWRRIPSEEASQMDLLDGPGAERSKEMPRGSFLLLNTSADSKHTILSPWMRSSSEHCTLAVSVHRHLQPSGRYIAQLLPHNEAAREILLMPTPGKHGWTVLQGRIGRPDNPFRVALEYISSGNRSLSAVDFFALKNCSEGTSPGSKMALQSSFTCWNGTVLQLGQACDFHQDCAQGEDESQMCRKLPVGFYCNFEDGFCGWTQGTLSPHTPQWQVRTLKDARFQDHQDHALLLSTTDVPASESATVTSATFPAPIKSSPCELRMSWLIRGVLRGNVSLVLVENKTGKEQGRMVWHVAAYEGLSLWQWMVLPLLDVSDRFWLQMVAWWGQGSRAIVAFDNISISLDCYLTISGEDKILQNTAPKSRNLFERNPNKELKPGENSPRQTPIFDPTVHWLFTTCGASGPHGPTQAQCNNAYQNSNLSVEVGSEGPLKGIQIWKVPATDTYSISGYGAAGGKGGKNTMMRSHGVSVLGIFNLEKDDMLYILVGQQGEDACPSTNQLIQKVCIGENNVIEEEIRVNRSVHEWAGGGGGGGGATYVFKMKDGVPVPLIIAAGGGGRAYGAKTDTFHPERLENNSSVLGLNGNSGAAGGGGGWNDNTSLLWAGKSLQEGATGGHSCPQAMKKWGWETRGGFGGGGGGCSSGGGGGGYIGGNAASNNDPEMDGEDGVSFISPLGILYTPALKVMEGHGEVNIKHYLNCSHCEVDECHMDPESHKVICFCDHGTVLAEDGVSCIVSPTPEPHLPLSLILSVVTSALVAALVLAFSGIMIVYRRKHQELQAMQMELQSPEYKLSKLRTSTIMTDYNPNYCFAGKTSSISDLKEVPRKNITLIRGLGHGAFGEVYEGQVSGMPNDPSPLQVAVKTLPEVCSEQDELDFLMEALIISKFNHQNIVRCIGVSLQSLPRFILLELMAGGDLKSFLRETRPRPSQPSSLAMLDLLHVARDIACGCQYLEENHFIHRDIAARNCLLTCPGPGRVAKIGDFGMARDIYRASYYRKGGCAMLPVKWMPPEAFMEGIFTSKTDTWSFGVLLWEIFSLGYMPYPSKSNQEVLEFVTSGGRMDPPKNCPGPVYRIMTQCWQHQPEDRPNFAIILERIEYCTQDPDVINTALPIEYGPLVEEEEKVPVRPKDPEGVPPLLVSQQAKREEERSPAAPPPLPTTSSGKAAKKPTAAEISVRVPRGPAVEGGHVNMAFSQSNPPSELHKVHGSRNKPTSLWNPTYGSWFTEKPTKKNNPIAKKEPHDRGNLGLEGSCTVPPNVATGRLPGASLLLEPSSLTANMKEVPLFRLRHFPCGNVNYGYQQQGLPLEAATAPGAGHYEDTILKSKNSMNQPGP
Chain of UniProt O76090 (whole entry, unmodified, looked up): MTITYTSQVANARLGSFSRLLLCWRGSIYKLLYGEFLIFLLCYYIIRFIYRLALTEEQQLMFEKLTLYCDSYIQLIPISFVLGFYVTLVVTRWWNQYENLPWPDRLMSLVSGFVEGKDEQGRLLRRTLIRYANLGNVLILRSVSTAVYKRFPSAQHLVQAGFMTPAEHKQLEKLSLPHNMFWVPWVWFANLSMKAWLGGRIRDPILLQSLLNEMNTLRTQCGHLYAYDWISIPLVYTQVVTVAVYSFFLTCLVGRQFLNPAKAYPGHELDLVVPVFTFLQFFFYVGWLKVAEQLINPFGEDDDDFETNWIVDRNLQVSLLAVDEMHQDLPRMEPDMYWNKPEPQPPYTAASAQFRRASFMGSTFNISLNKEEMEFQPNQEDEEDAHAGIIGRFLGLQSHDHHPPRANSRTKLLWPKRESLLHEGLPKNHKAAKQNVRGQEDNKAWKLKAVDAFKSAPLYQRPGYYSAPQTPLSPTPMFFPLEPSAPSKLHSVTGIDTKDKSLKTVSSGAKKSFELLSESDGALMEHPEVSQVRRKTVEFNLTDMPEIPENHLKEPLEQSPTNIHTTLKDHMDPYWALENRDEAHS
Chain of UniProt Q16774 (whole entry, looked up): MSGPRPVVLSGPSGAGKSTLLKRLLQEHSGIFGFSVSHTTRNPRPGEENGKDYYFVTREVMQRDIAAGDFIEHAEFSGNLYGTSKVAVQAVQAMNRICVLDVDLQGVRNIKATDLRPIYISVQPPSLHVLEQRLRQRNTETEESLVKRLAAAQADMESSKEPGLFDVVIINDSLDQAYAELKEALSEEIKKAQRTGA
Chain of UniProt Q01782 (whole entry, looked up): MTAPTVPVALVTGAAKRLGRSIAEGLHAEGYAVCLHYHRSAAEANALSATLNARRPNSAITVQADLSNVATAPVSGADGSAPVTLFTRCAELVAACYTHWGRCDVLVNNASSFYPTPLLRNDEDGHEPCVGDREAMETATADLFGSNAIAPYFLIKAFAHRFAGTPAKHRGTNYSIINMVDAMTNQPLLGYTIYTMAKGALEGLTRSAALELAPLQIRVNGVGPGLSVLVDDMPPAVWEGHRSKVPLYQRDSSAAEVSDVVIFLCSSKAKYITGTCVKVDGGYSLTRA

Structure (SMILES)	tested on	test	test system	setting	how to read	measurement	value
Nc1ccc(C(=O)O)cc1	BEST1, with wild-type BEST1 (Homo sapiens, UniProt O76090, L234P)	ion current, whole-cell patch clamp	HEK293 co-expressing mutant and wild-type	concentration not given, voltage 0 mV		current density	-0.02 pA/pF and 0.02 pA/pF and -0.01 pA/pF and -0.05 pA/pF and 0.03 pA/pF
C=CC(=O)N1CCC[C@@H](n2nc(-c3ccc(Oc4ccccc4)cc3)c3c(N)ncnc32)C1	Mitogen-activated protein kinase kinase kinase kinase 3 (MAP4K3, Homo sapiens, UniProt Q8IVH8)			1 µM		remaining activity	108%
COc1cc2nc(N3CCCN(C)CC3)nc(NC3CCN(Cc4ccccc4)CC3)c2cc1OC	HBL-1			1 µM, 120 h		viability	106%
Cc1nc(CSc2nc(SCc3cc(F)cc(C(F)(F)F)c3)nc(=O)[nH]2)cs1	TOP2A	decatenation		31.25 µM, replicate 2		decatenated DNA	86.6%
N[C@@H](CCO)C(=O)O	Uncharacterized protein (Pelagibacter ubique, UniProt Q4FM26)	differential scanning fluorimetry	Candidatus Pelagibacter ubique	in-house screen		thermal shift	5.02 °C and 2.62 °C
CCOc1cccc(C2CC(=O)Nc3c2c(C)nn3-c2ccc3nncn3n2)c1 (stereo not drawn)	DNA damage-binding protein 1 (DDB1, Homo sapiens, UniProt Q16531)	binding, surface plasmon resonance		15 µM		SPR response	8.41 RU
CC(C)c1cccc2c(-c3ccccc3)cc(/C=C/c3ccc(C(=O)O)cc3)nc12	Retinoic acid receptor beta (RARB, Homo sapiens, UniProt P10826)	reporter gene, antagonist		up to 3300 nM, with: ATRA 4 nM (EC80)		IC50	inactive
CN(C)C(=O)C(CCN1CCC(O)(c2ccc(Cl)cc2)CC1)(c1ccccc1)c1ccccc1	Calcium-activated potassium channel subunit alpha-1, with LRRC26 γ1 subunit (KCNMA1, Homo sapiens, UniProt Q12791)	BK current, inhibitor, inside-out patch clamp	excised membrane patch	30 µM, γ1 coexpressed, individual fits, with: nominally 0 Ca2+ cytosolic	reference: without loperamide	normalized Gmax	0.117 ± 0.036
Cc1nc(CSc2nc(SCc3ccc(C(F)(F)F)cc3)nc(=O)[nH]2)cs1	TOP2A	decatenation		15.6 µM		mean decatenated DNA	94.5%
CC1(C)CC2(C)OC(=O)NC2(C)c2ccccc21 (stereo not drawn)	Histone-lysine N-methyltransferase SETDB1, triple tudor domain (SETDB1, Homo sapiens, UniProt Q15047)	binding, affinity selection mass spectrometry			reference: other proteins in batch	fold enrichment	0.714
O=c1nc(SCc2ccc(C(F)(F)F)cc2)nc(SCc2ccc3sccc3c2)[nH]1	TOP2A	decatenation		31.25 µM, replicate 1		decatenated DNA	0%
[Zn+2]	Otop1 (Mus musculus, UniProt Q80VM9)	acid-evoked current, inhibitor, whole-cell patch-clamp	HEK293T	0.01 mM, pH 5.5, unit not given	reference: current before compound	remaining current	0.79
O=c1ccc2nc3ccc(O[C@@H]4O[C@H](CO)[C@@H](O)[C@H](O)[C@H]4O)cc3oc-2c1	Lysosomal acid glucosylceramidase (GBA1, Homo sapiens, UniProt P04062, R534H)	substrate			reference: cpd over 4MU-β-glc	catalytic efficiency ratio	~700
COc1cc(N2CCC(N3CCN(C)CC3)CC2)ccc1Nc1ncc(Cl)c(Nc2ccccc2P(C)(C)=O)n1	GID4/ALK (Homo sapiens, UniProt Q8IVV7+Q9UM73)	ternary complex formation	HEK293T	50 nM, 6 h	reference: normalised ratio	NanoBRET ratio	1.06 and 1.14 and 0.876
O=C(O)c1ccc(Nc2ncc3c(n2)-c2ccc(Cl)cc2C(c2c(F)cccc2F)=NC3)cc1	human SRPK1(h)	kinase activity		1 µM		remaining activity	105%
O=C(O)C1=CCNCC1	BEST2	whole-cell patch clamp	HEK293 transiently expressing channel	concentration not given, membrane potential -100 mV		current density	-241 pA/pF and -187 pA/pF and -189 pA/pF and -492 pA/pF and -240 pA/pF
c1ccc(CCCOCCc2ccc3[nH]cnc3c2)cc1	ATP2A2 (Sus scrofa, UniProt P11607)	NADH-coupled	microsomes	concentration not given		ATPase activity	inactive
Nc1nc2c(ncn2[C@@H]2O[C@H](COP(=O)(O)O)[C@@H](O)[C@H]2O)c(=O)[nH]1	GUK1 (Homo sapiens, UniProt Q16774)	enzyme activity, NADH-coupled		31.25 µM, with: KCl 10 mM		reaction velocity	0.0544 µM/s and 0.0492 µM/s and 0.0407 µM/s

Structure (SMILES)	tested on	test	test system	setting	how to read	measurement	value
NS(=O)(=O)C(F)(F)F	Carbonic anhydrase 4 (CA4, Homo sapiens, UniProt P22748)	ITC		concentration not given, 25 °C		intrinsic binding ΔH	-21.5 kJ/mol
O=C(O)c1ccc([N+](=O)[O-])cc1	BEST2	whole-cell patch clamp	HEK293 transiently expressing channel	concentration not given, membrane potential -60 mV		current density	-66.5 pA/pF and -219 pA/pF and -159 pA/pF and -161 pA/pF and -180 pA/pF
Nc1nc(N)c2nc(C(=O)NCc3ccccc3)cnc2n1	Pteridine reductase 1 (Leishmania major, UniProt Q01782)			hDHFR weight 10	reference: LmPTR1, LmDHFR over hDHFR, 1.0 selective, 0.0 non-selective	partition index	0.66
Cc1c(COc2ccc(CN3CCCCC3C(=O)NCCCNC(=O)CN(C)CCCC34CCC(c5ccccc53)c3ccccc34)cc2Br)cccc1-c1ccccc1 (stereo not drawn)	Programmed cell death 1 ligand 1 (CD274, Homo sapiens, UniProt Q9NZQ7)	degrader, western blot	HL-60	1 µM		degradation	10.3 ± 3.5%
CN(Cc1cnc2nc(N)nc(N)c2n1)c1ccc(C(=O)N[C@@H](CCC(=O)O)C(=O)O)cc1	Proton-coupled folate transporter (Homo sapiens, UniProt Q96NT5, H247A)		cells transfected with H247A mutant		reference: wild type	Kt decrease	4.2 fold
CCOc1ccc2c(-c3cc(C)nc(Nc4cc(OC)cc(C(F)(F)F)c4)n3)cnn2n1	Homeodomain-interacting protein kinase 1 (HIPK1, Homo sapiens, UniProt Q86Z02)	NanoBRET target engagement	live cells	concentration not given, no binding		binding	no binding
O=C(C1CCOCC1)N1CC(=O)N2[C@H](CO)[C@H](c3ccc(C#Cc4cccc(F)c4)cc3)[C@H]2C1	IDE	enzyme activity, inhibitor, fluorogenic kinetic		with: Mca-RPPGFSAFK(Dnp)-OH substrate		EC50	5300 nM
CC1=C(/C=C/C(C)=C/C=C/C(C)=C/C(=O)O)C(C)(C)CCC1	Cellular retinoic acid-binding protein 2 (CRABP2, Homo sapiens, UniProt P29373, L122E/R112L/R133K)	tryptophan fluorescence quenching		concentration not given	reference: R132K:R111L:L121E over R132K:L121E, higher = stronger binding	binding affinity fold change	3 fold
Oc1ccccc1-c1n[nH]cc1-c1ccnc2ccccc12	Casein kinase I HRR25 (Candida albicans, UniProt Q59S64)	kinase binding, MIB/MS competition	Candida albicans lysate	10 µM	reference: DMSO, negative = stronger binding	log2 fold change	0.11
CC(C)c1ccc(CSc2nc(SCc3ccc4sccc4c3)[nH]c(=O)n2)cc1	TOP2A	decatenation		15.6 µM, replicate 2		decatenated DNA	0.81%
CC[C@@H]1[C@H](F)C(=O)N[C@@H]1COc1nccc2cc(C(N)=O)c(OC)cc12	Phosphatidylinositol 4-kinase beta (PI4KB, Homo sapiens, UniProt Q9UBF8)	ATP-site probe binding, ActivX profiling	THP-1 cell lysate	0.01 mM		inhibition	1.7%
O=C1N[C@H](c2cncc(C#Cc3ccccc3)c2)[C@@H](c2ccccc2Cl)O1	Metabotropic glutamate receptor 5 (Mus musculus, UniProt Q3UVX5)	PAM-induced seizures, antagonist	mouse	Racine scale		ED50	1.5 ± 0.8 mg/kg
O=C1CCC(N2C(=O)C=C(Nc3cccc(C4(NCCc5ccc(C(F)(F)F)c(Cl)c5)CCC4)c3)C2=O)C(=O)N1 (stereo not drawn)	Cereblon/Ikaros	protein degradation, degrader, HiBiT luminescence	Jurkat			Dmax	84%
O=C(CCCN1C(=O)c2cccc3cccc(c23)C1=O)NO	HBL-1			1 µM, 120 h		viability	88.8%
CCC(C)(NCCc1ccc(C(F)(F)F)cc1C(F)(F)F)c1cccc(NC2=CC(=O)N(C3CCC(=O)NC3=O)C2=O)c1 (stereo not drawn)	Cereblon/Ikaros	protein degradation, degrader, HiBiT luminescence	Jurkat			Dmax	71%
CCCCCCCC(=O)c1cc(OC)c(OC)c(OC)c1CC(=O)OCC	Retinoic acid receptor alpha (RARA, Homo sapiens, UniProt P10276)	reporter gene, Gal4 hybrid reporter		10 µM	reference: vehicle	activation	0.76 fold
Cc1cccc(-c2ccc([C@@H]3[C@@H](CO)N4CCCCN(S(=O)(=O)N5CCN(C)CC5)C[C@@H]34)cc2)c1C	IDE	enzyme activity, inhibitor, fluorescence kinetic		with: Mca-RPPGFSAFK(Dnp)-OH substrate		EC50	32 nM
O=C(OC[C@H]1O[C@@H](OC(=O)c2cc(OS(=O)(=O)[O-])c(O)c(OS(=O)(=O)[O-])c2)[C@H](OC(=O)c2cc(OS(=O)(=O)[O-])c(O)c(OS(=O)(=O)[O-])c2)[C@@H](OC(=O)c2cc(OS(=O)(=O)[O-])c(O)c(OS(=O)(=O)[O-])c2)[C@@H]1OC(=O)c1cc(OS(=O)(=O)[O-])c(O)c(OS(=O)(=O)[O-])c1)c1cc(OS(=O)(=O)[O-])c(O)c(OS(=O)(=O)[O-])c1.[Na+].[Na+].[Na+].[Na+].[Na+].[Na+].[Na+].[Na+].[Na+].[Na+]	Neutrophil elastase (ELANE, Homo sapiens, UniProt P08246)	enzyme activity, inhibitor		with: chromogenic substrate		Hill slope	0.9

A few entries again:
Structure (SMILES)	tested on	test	test system	setting	how to read	measurement	value
Nc1ccc(C(=O)O)cc1	BEST1, with wild-type BEST1 (Homo sapiens, UniProt O76090, L234P)	ion current, whole-cell patch clamp	HEK293 co-expressing mutant and wild-type	concentration not given, voltage 0 mV		current density	-0.02 pA/pF and 0.02 pA/pF and -0.01 pA/pF and -0.05 pA/pF and 0.03 pA/pF
C=CC(=O)N1CCC[C@@H](n2nc(-c3ccc(Oc4ccccc4)cc3)c3c(N)ncnc32)C1	Mitogen-activated protein kinase kinase kinase kinase 3 (MAP4K3, Homo sapiens, UniProt Q8IVH8)			1 µM		remaining activity	108%
